# Experimental data pooled from the literature.
# Lines come from different studies, so protocols differ.
# Route: intravenous
SMILES,host,matrix,dose,notes,Vd
CC(C)(C)C(=O)Nc1ccc2[nH]c(CN3CCC(N(CCCN4CCOCC4)CC4OC(n5cnc6c(N)ncnc65)C(O)C4O)CC3)nc2c1 (centres unmarked),male Sprague-Dawley rat,plasma,20 mg/kg,,7.59 L/kg
COc1ccc2c(c1OCc1ccccc1)C[C@@H](C(=O)O)N(c1nc3ccc(C#N)cc3o1)C2,male Sprague-Dawley rat,plasma,1 mg/kg,,0.21 L/kg
COC(=O)c1ccc2c(c1)NC(=O)/C2=C(\Nc1ccc2c(c1)CCN2C(=O)CN1CCOCC1)c1ccccc1,Sprague-Dawley rat,blood,2 mg/kg,,1.38 L/kg
Cc1cc(N2CCC(C#N)(C3(C)CC3)C2=O)cc(C(=O)NCc2cc(F)cc(-c3cnn(C)c3)c2)n1 (racemic),male Sprague-Dawley rat,plasma,0.9 mg/kg,,2 L/kg
Cc1ccc(OCC(=O)N(Cc2cccs2)c2ccn[nH]2)cc1,male Sprague-Dawley rat,plasma,1 mg/kg,single dose,1.81 L/kg
COc1ccc2c(c1OCc1ccccc1)C[C@@H](C(=O)O)N(c1nc3ccc(F)cc3o1)C2,male Sprague-Dawley rat,plasma,1 mg/kg,,0.24 L/kg
COc1cc(NC(C)=O)c2c(c1O)-c1c(OC)c(OC)cc3c1C(C2)N(C)CC3 (centres unmarked),male Wistar rat,plasma,100 mg/kg,,8.06 L/kg
N[C@H](COc1ccccc1C(F)(F)F)c1ccccc1,rat,plasma,5 mg/kg,,54.6 L/kg
CSCOC1C(=O)C2(C)C(OCSC)CC3OCC3(OC(C)=O)C2C(OC(=O)c2ccccc2)C2(O)CC(OC(=O)C(O)C(C=C(C)C)NC(=O)OC(C)(C)C)C(C)=C1C2(C)C (centres unmarked),female Sprague-Dawley rat,plasma,1 mg/kg,,68.5 L/kg
CC12CC3CC(C)(C1)CC(NC(=O)Nc1ccc(C(=O)N4CCCC(C(N)=O)C4)cc1)(C3)C2 (centres unmarked),Sprague-Dawley rat,plasma,10 mg/kg,,3.48 L
CC1(C)CNC(=O)c2ccccc21,rat,plasma,1 mg/kg,single dose,1.8 L/kg
O=C(c1ccccc1)c1cc(O)c(-c2cc(Cl)cc(Cl)c2)c(O)c1,male Sprague-Dawley rat,plasma,5 mg/kg,single dose,14.9 L/kg
CCCN(c1ccc(C(=O)NCCC(=O)O)cc1)S(=O)(=O)c1cc(C)c(-c2ccc(C(C)(C)C)cc2)c(C)c1,rat,plasma,2 mg/kg,,0.371 L/kg
COc1ccc(S(=O)(=O)N2CCc3ccccc3C2)cc1N1CCN(C(=O)c2ccc(F)cc2C(F)(F)F)CC1,rat,plasma,10 mg/kg,single dose,4.6 L/kg

# Repeated from above:
SMILES,host,matrix,dose,notes,Vd
COc1cc(NC(C)=O)c2c(c1O)-c1c(OC)c(OC)cc3c1C(C2)N(C)CC3 (centres unmarked),male Wistar rat,plasma,100 mg/kg,,8.06 L/kg
COc1ccc2c(c1OCc1ccccc1)C[C@@H](C(=O)O)N(c1nc3ccc(C#N)cc3o1)C2,male Sprague-Dawley rat,plasma,1 mg/kg,,0.21 L/kg
